Published values pooled from the literature.
Parts stem from different laboratories: compare values within a part only.

Set 1
Target: Histone acetyltransferase KAT6A, winged helix 1, GST fusion (KAT6A, Homo sapiens, UniProt Q92794, residues 1-85)
Method: protein binding microarray
Form: double-stranded DNA, one strand shown
Sample: in vitro
Tested at: not given
Notes: 8-mer, flanks averaged, mean of 2 arrays, mostly near background
Relative to: not given
Reading: higher = stronger binding
Measurement: E-score
Target sequence (chain): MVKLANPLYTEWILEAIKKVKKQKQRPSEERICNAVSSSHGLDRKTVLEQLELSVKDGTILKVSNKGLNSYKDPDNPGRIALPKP
AGCGTCAG: -0.129
CCTCTATA: -0.0797
AATGTTGT: -0.161
AGATGACA: -0.184
ACTAGGAC: -0.121
AGCAGCGC: 0.249
CTTCCGGA: -0.0496
GAAATTGC: -0.0315
GAGCTTCC: 0.0654
CACTTTTC: -0.124

Set 2
Target: Sal-like protein 4, full length isoform A (SALL4, Homo sapiens, UniProt Q9UJQ4, residues 1-1053)
Sequence of UniProt Q9UJQ4 (whole entry, looked up): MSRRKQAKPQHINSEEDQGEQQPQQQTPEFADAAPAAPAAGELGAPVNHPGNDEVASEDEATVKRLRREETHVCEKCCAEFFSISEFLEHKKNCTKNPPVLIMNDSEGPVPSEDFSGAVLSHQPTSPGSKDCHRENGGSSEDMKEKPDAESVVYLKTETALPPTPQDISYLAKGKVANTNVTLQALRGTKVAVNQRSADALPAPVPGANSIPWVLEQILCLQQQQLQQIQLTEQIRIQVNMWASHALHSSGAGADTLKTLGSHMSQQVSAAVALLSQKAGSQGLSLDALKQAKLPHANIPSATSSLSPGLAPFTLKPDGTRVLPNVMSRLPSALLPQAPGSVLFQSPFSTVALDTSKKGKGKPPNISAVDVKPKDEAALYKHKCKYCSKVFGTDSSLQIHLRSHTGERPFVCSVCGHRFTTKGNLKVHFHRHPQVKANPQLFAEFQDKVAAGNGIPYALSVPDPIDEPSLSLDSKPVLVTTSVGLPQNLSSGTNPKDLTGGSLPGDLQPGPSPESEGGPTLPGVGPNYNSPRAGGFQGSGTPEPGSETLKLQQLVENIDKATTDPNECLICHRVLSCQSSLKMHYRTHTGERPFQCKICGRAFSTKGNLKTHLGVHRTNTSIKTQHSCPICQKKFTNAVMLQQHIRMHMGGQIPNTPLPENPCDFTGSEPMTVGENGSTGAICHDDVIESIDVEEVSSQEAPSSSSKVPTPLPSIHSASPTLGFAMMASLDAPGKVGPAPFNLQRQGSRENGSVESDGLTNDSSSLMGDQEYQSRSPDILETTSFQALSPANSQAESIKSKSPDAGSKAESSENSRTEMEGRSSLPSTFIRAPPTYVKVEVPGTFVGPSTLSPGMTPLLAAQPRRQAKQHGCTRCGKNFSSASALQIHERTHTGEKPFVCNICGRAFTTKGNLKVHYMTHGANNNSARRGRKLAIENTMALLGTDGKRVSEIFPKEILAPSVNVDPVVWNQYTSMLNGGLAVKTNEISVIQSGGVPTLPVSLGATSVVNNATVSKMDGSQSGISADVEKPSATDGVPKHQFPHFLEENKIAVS
Method: universal PBM
Form: double-stranded DNA, one strand shown
Sample: in vitro
Tested at: 600 nM
Notes: 8-mer, flanks averaged, mean of replicates
Reading: higher = stronger binding
Measurement: E-score
GATTAATC: 0.207
ACACAGGG: -0.184
ACTCCTCA: 0.0726
CATGGGGC: -0.279
TCGCAAGA: -0.0762
AGAATACA: 0.248
CGGCATTA: 0.0876
CCCGACAG: -0.252
AGGGGTAT: -0.152
CAACCCGA: -0.152
CTGATGTC: 0.0106
CTAGTGTA: 0.0864
CACTCGGC: -0.135
ATGTACTG: 0.133
AGAGACCG: -0.258

Set 3
Target: Centromere-binding protein 1, full length, His-tagged (CBF1, Saccharomyces cerevisiae, UniProt P17106, residues 1-351)
Sequence of UniProt P17106 (whole entry, looked up): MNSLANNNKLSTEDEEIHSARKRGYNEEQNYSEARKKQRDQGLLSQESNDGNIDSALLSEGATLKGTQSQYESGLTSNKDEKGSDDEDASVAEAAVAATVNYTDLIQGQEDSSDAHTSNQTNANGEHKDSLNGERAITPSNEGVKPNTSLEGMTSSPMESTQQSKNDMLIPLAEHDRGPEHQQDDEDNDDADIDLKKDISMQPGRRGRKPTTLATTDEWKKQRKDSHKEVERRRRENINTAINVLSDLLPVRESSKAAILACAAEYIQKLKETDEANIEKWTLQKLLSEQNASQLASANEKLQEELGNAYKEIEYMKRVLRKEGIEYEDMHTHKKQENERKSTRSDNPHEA
Method: competition protein-binding microarray
Form: double-stranded DNA, one strand shown
Sample: in vitro
Tested at: 2 µM
Notes: whole 60-bp probe, lowest competitor level
Added: Pho4 competitor, 0.05 µM
Reading: higher = stronger binding
Measurement: fluorescence intensity
Shared flanks, not repeated: … GTCTTGATTCGCTTGACGCTGCTG
TCCACCTCAAACGGCCACGCTCTGCTTTTTTTCTAT: 96 a.u.
CGTCCTAGTGATTGGTCCGTGGGTGCCATGAGGAAG: 76.2 a.u.
GTCTTGTCTCATTGTCACCGTACTTTCCCCACTTCA: 86.5 a.u.
CGGGGTTAAGTTTGAGCAGTGGGTGGCTTGCAGCAG: 60.3 a.u.
CTTCTGTAAATTTGCCTGGTGGGTGGACGCGCCCCG: 69.4 a.u.
AGCTGCAATTAATGCAGTTGAGAACTAGCTTTTTTT: 90.7 a.u.
TTCCTGCTCTCGTTCCACGTTGTCATCCCACCCATT: 76.3 a.u.
GATCTTGACCTTACCGTCGTGACGGGCAGCCTTGAT: 80.3 a.u.
GCCTATAACAGCACCAACGTGCGGAATACTGATTGC: 87 a.u.
GTCTTGTCTCATTGGCTTGTGGGTGTCCCCACTTCA: 73 a.u.
TCATGAGATTGGATGATCGTGCCGATAGACTAGCAG: 86.7 a.u.

Mixed results
PhoQ, residues 284 288 289 292 302 303 AGHLVA  fold induction (PhoP, residues 12 14 15 18 19 NQFFI (Escherichia coli, UniProt P23836); Sort-seq, refers to: YFP reporter; E. coli; PhoQ-PhoP variant library, added: 10 µM Mg2+; relative to: high Mg2+ state, higher = stronger signaling): 6.79

A few entries again (mixed results):
PhoQ, residues 284 288 289 292 302 303 AGHLVA  fold induction (PhoP, residues 12 14 15 18 19 NQFFI (Escherichia coli, UniProt P23836); Sort-seq, refers to: YFP reporter; E. coli; PhoQ-PhoP variant library, added: 10 µM Mg2+; relative to: high Mg2+ state, higher = stronger signaling): 6.79
